# Assay results from different studies.
# Each numbered part is a random draw from the data of one study; scales do not carry over between parts.
# Sequence of UniProt O00329 (whole entry, looked up): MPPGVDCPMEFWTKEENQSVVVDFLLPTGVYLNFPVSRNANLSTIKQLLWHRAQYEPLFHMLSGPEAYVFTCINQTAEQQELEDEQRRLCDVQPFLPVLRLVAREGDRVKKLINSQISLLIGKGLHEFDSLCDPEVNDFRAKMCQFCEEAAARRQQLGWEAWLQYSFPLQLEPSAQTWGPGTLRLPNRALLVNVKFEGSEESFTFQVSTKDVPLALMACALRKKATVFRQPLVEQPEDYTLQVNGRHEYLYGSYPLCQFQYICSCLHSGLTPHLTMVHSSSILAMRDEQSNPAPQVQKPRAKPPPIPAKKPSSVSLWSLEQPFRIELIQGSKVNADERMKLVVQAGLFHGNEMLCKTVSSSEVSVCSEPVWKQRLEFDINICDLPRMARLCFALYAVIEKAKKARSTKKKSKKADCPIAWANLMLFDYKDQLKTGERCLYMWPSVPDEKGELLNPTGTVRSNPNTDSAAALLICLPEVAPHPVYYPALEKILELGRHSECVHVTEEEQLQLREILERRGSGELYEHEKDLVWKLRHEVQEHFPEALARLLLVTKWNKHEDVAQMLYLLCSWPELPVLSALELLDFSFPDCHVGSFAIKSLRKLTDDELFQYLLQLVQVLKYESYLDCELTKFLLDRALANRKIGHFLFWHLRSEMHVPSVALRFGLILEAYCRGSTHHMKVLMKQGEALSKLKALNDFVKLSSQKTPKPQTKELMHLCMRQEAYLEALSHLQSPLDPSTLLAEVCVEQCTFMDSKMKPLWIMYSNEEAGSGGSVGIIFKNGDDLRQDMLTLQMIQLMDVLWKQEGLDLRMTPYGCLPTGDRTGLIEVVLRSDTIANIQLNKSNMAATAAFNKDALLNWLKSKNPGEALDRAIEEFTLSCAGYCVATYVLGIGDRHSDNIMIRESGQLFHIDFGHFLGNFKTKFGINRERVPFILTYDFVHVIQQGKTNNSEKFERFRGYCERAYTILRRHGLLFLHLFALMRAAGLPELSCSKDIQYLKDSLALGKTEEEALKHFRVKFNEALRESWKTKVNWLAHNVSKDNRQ
# Sequence of UniProt P10721 (whole entry, unmodified, looked up): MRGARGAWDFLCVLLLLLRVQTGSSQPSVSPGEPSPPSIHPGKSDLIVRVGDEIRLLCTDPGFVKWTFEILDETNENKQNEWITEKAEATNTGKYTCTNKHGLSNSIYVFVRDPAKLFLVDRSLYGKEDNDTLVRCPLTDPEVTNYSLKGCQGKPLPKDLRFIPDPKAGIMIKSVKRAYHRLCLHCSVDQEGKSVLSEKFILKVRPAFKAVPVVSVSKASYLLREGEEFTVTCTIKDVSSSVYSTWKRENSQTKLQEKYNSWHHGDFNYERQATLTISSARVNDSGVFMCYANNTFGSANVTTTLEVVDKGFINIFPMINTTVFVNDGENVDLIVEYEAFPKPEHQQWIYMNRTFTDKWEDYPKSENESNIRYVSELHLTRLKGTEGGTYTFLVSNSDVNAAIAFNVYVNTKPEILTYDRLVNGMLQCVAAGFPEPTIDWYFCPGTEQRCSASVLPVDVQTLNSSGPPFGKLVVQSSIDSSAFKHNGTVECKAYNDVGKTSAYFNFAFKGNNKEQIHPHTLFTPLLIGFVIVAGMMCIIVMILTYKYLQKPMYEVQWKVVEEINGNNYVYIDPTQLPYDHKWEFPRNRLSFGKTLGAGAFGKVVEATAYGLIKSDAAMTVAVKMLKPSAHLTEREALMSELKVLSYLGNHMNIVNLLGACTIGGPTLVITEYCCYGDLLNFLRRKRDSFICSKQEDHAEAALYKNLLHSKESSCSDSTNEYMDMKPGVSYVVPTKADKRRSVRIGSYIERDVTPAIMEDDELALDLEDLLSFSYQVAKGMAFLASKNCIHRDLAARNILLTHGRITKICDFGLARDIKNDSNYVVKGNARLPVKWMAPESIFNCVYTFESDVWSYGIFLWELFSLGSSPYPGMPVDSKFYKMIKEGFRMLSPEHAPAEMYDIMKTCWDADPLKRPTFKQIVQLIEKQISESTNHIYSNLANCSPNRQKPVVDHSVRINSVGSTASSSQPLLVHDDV
# Sequence of UniProt Q9NQU5 (whole entry, looked up): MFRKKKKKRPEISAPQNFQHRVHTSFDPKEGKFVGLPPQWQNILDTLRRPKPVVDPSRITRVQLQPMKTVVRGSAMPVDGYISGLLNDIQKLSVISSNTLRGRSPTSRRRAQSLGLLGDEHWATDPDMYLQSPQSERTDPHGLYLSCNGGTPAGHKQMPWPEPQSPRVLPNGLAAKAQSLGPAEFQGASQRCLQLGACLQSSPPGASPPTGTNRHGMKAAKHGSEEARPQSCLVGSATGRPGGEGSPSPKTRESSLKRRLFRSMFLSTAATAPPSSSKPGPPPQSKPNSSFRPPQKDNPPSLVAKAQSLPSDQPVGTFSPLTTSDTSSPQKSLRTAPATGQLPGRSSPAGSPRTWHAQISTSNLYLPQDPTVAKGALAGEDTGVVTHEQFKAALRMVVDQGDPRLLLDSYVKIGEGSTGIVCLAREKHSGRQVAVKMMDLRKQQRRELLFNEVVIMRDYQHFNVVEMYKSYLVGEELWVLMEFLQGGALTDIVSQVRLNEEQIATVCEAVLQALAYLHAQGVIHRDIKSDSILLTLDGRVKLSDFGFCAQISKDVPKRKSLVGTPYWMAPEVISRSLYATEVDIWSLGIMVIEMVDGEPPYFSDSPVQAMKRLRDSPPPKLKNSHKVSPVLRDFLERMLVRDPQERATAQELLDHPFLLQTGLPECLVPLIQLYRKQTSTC
# Sequence of UniProt Q8NEV4 (whole entry, looked up): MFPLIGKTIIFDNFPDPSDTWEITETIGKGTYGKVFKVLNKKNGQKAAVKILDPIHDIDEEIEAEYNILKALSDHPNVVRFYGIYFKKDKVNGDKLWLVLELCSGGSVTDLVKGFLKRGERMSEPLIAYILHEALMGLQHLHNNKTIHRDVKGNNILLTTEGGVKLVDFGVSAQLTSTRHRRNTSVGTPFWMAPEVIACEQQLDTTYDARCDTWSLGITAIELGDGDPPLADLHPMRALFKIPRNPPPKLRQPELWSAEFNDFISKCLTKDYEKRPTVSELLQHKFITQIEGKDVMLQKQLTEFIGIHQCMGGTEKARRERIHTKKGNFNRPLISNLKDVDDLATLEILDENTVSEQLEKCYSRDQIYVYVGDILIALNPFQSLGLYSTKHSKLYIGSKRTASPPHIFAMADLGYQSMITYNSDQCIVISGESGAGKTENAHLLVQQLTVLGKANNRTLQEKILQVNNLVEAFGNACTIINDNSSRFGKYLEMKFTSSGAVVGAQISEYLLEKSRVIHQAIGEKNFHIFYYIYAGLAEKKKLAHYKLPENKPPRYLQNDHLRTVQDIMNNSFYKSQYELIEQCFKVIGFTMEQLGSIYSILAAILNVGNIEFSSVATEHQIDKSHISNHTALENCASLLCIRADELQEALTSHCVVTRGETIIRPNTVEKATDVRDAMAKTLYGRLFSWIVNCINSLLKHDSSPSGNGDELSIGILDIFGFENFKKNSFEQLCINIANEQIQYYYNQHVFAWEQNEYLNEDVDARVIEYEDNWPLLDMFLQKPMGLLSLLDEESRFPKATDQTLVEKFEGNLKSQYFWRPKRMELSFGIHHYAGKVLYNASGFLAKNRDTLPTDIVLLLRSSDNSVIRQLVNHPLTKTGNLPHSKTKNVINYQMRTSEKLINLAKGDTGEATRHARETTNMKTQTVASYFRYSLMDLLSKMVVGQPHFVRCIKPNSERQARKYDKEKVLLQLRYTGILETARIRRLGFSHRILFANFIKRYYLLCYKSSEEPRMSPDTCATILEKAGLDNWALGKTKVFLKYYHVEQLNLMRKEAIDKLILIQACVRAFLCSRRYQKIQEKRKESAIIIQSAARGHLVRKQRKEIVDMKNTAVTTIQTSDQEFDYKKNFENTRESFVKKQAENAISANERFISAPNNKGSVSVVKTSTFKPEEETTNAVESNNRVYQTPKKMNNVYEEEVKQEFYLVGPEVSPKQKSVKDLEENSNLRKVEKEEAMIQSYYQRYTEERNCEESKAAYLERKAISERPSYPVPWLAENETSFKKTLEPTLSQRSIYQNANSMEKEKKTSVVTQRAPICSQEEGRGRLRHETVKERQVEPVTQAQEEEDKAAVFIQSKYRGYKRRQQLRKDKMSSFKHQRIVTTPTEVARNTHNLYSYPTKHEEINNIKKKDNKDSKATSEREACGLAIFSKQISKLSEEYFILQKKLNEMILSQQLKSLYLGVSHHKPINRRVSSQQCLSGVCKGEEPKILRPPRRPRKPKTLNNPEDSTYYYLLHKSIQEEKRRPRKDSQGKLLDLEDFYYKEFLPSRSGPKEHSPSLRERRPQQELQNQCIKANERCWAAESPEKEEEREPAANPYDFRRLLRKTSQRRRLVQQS

# Series 1
# Target: Serine/threonine-protein kinase MARK1 (MARK1, Homo sapiens, UniProt Q9P0L2)
# Sequence of UniProt Q9P0L2 (whole entry, looked up): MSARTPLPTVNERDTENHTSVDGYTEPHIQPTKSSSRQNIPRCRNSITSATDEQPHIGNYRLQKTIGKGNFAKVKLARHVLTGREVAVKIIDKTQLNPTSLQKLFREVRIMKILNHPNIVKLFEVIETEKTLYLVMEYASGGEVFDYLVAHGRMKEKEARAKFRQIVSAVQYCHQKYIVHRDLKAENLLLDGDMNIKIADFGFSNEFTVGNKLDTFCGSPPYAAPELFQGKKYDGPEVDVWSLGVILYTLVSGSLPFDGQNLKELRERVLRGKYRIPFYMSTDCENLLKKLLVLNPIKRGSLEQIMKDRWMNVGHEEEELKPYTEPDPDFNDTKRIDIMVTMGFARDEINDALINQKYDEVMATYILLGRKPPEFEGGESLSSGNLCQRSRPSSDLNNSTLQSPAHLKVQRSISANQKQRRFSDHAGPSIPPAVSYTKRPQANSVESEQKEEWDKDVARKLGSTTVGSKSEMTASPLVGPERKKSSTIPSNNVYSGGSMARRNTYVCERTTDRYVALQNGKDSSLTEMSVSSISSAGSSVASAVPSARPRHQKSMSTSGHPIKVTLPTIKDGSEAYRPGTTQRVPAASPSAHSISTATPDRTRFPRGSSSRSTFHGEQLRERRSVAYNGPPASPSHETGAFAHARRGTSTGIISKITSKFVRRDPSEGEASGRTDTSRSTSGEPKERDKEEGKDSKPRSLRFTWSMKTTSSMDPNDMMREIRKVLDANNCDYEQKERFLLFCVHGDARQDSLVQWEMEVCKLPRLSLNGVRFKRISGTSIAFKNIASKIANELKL
# Observed: enzyme activity
# Mode: inhibitor
# Tested at: 0.5 µM
# Relative to: control
Structure (SMILES),remaining activity [%]
O=C1Cc2c([nH]c3ccc([N+](=O)[O-])cc23)-c2ccccc2N1,62.5
NC(=O)c1ccc(N(C(N)=O)c2c(F)cccc2F)nc1-c1ccc(F)cc1F,132
O=C1NC(=O)C(c2c[nH]c3ccccc23)=C1c1c[nH]c2ccccc12,90.6
CC(=O)c1ccc(N2CCOCC2)cc1O,96.7
COc1cc(Nc2c(C#N)cnc3cc(OCCCN4CCN(C)CC4)c(OC)cc23)c(Cl)cc1Cl,109
Cc1ccc(NC2=CC(=O)c3sc(C)nc3C2=O)cc1,89.6

# Series 2
# Species: mouse
# Medium: microsomes or S9
# Tested at: 2 µM
# Time: 0.5 h
Structure (SMILES),remaining compound [%]
O=C1CCCC2=C1C(c1ccc3c(c1)OCO3)Nc1ccc(C(=O)c3ccccc3)cc1N2 (centres unmarked),4.34
COc1ccc(-c2coc3c(O)c(OC)ccc3c2=O)cc1,12.2
CCOC(=O)c1ccc(NC(=O)c2ccc(-n3nncc3C)cc2)cc1,0.382
Cc1c(C(=O)O)[nH]c(CCNC(=O)OC(C)(C)C)c1S(N)(=O)=O,75.4
CCN1CCN(C(=O)c2ccc3c(c2)N(Cc2cccc(Cl)c2)C(=O)c2ccccc2[S+]3[O-])CC1 (centres unmarked),0.493
Cc1cc(=O)n2nc(CN(C(=O)CC(C)C)c3ccc(F)cc3)nc2[nH]1,88.2
Cc1ccc(CO)c(-c2ccc3c(c2)CNCC2(CCC2)O3)c1,0.213
c1ccc(OCCN2CCCC3(C2)Nc2ccccc2-n2cccc23)cc1 (centres unmarked),0.0402

# Series 3
# Compound: C[C@@H](c1cccc(C#N)c1)n1cc(Cl)cc(C(N)=O)c1=N
# Technique: competition with immobilised ligand
# Tested at: 1 µM
target,observed,remaining binding
"KIT (Homo sapiens, UniProt P10721, D816V)",cell-free assay,94%
"Myosin-IIIa (MYO3A, Homo sapiens, UniProt Q8NEV4)",binding,99%
"EGFR (Homo sapiens, UniProt P00533, del747-752/P753S)",cell-free assay,90%
"PIK3CD (Homo sapiens, UniProt O00329)",cell-free assay,100%
"PAK6 (Homo sapiens, UniProt Q9NQU5)",cell-free assay,86%

# Other studies, line by line
SMILES,cell line,test,conditions,how to read,measurement,value
CC(C)(C)c1cnc(CSc2cnc(NC(=O)C3CCN(CCCCCSc4cccc5c4CN(C4CCC(=O)NC4=O)C5=O)CC3)s2)o1 (centres unmarked),HuT78,"MS proteomics, measured: P36578 (RPL4)","concentration not given, 12 h",relative to: 0 h,log2 fold change,1.08

# A few entries again (series 1):
Structure (SMILES),remaining activity [%]
COc1cc(Nc2c(C#N)cnc3cc(OCCCN4CCN(C)CC4)c(OC)cc23)c(Cl)cc1Cl,109
Cc1ccc(NC2=CC(=O)c3sc(C)nc3C2=O)cc1,89.6
